Published values gathered from unrelated publications.
B1: TARBP2 (Homo sapiens, UniProt Q15633); sequence looked up; chain MSEEEQGSGTTTGCGLPSIEQMLAANPGKTPISLLQEYGTRIGKTPVYDLLKAEGQAHQPNFTFRVTVGDTSCTGQGPSKKAAKHKAAEVALKHLKGGSMLEPALEDSSSFSPLDSSLPEDIPVFTAAAAATPVPSVVLTRSPPMELQPPVSPQQSECNPVGALQELVVQKGWRLPEYTVTQESGPAHRKEFTMTCRVERFIEIGSGTSKKLAKRNAAAKMLLRVHTVPLDARDGNEVEPDDDHFSIGVGSRLDGLRNRGPGCTWDSLRNSVGEKILSLRSCSLGSLGALGPACCRVLSELSEEQAFHVSYLDIEELSLSGLCQCLVELSTQPATVCHGSATTREAARGEAARRALQYLKIMAGSK
B2: dnaG P16 domain 453-597 (Geobacillus stearothermophilus, UniProt Q9X4D0); sequence looked up; chain AKKLLPAFQNAERLLLAHMMRSRDVALVVQERIGGRFNIEEHRALAAYIYAFYEEGHEADPGALISRIPGELQPLASDVSLLLIADDVSEQELEDYIRHVLNRPKWLMLKVKEQEKTEAERRKDFLTAARIAKEMIEMKKMLSSS
B3: PI4KB V434G (Homo sapiens, UniProt Q9UBF8-2); sequence looked up; chain MGDTVVEPAPLKPTSEPTSGPPGNNGGSLLSVITEGVGELSVIDPEVAQKACQEVLEKVKLLHGGVAVSSRGTPLELVNGDGVDSEIRCLDDPPAQIREEEDEMGAAVASGTAKGARRRRQNNSAKQSWLLRLFESKLFDISMAISYLYNSKEPGVQAYIGNRLFCFRNEDVDFYLPQLLNMYIHMDEDVGDAIKPYIVHRCRQSINFSLQCALLLGAYSSDMHISTQRHSRGTKLRKLILSDELKPAHRKRELPSLSPAPDTGLSPSKRTHQRSKSDATASISLSSNLKRTASNPKVENEDEPVRLAPEREFIKSLMAIGKRLATLPTKEQKTQRLISELSLLNHKLPARVWLPTAGFDHHVVRVPHTQAVVLNSKDKAPYLIYVEVLECENFDTTSVPARIPENRIRSTRSVENLPECGITHEQRAGSFSTGPNYDNDDEAWSVDDIGELQVELPEVHTNSCDNISQFSVDSITSQESKEPVFIAAGDIRRRLSEQLAHTPTAFKRDPEDPSAVALKEPWQEKVRRIREGSPYGHLPNWRLLSVIVKCGDDLRQELLAFQVLKQLQSIWEQERVPLWIKPYKILVISADSGMIEPVVNAVSIHQVKKQSQLSLLDYFLQEHGSYTTEAFLSAQRNFVQSCAGYCLVCYLLQVKDRHNGNILLDAEGHIIHIDFGFILSSSPRNLGFETSAFKLTTEFVDVMGGLDGDMFNYYKMLMLQGLIAARKHMDKVVQIVEIMQQGSQLPCFHGSSTIRNLKERFHMSMTEEQLQLLVEQMVDGSMRSITTKLYDGFQYLTNGIM
B4: CTNNB1 (Homo sapiens, UniProt P35222); sequence looked up; chain MATQADLMELDMAMEPDRKAAVSHWQQQSYLDSGIHSGATTTAPSLSGKGNPEEEDVDTSQVLYEWEQGFSQSFTQEQVADIDGQYAMTRAQRVRAAMFPETLDEGMQIPSTQFDAAHPTNVQRLAEPSQMLKHAVVNLINYQDDAELATRAIPELTKLLNDEDQVVVNKAAVMVHQLSKKEASRHAIMRSPQMVSAIVRTMQNTNDVETARCTAGTLHNLSHHREGLLAIFKSGGIPALVKMLGSPVDSVLFYAITTLHNLLLHQEGAKMAVRLAGGLQKMVALLNKTNVKFLAITTDCLQILAYGNQESKLIILASGGPQALVNIMRTYTYEKLLWTTSRVLKVLSVCSSNKPAIVEAGGMQALGLHLTDPSQRLVQNCLWTLRNLSDAATKQEGMEGLLGTLVQLLGSDDINVVTCAAGILSNLTCNNYKNKMMVCQVGGIEALVRTVLRAGDREDITEPAICALRHLTSRHQEAEMAQNAVRLHYGLPVVVKLLHPPSHWPLIKATVGLIRNLALCPANHAPLREQGAIPRLVQLLVRAHQDTQRRTSMGGTQQQFVEGVRMEEIVEGCTGALHILARDVHNRIVIRGLNTIPLFVQLLYSPIENIQRVAAGVLCELAQDKEAAEAIEAEGATAPLTELLHSRNEGVATYAAAVLFRMSEDKPQDYKKRLSVELTSSLFRTEPMAWNETADLGLDIGAQGEPLGYRQDDPSYRSFHSGGYGQDALGMDPMMEHEMGGHHPGADYPVDGLPDLGHAQDLMDGLPPGDSNQLAWFDTDL
UniProt Q9UPY3, sequence (whole entry, looked up): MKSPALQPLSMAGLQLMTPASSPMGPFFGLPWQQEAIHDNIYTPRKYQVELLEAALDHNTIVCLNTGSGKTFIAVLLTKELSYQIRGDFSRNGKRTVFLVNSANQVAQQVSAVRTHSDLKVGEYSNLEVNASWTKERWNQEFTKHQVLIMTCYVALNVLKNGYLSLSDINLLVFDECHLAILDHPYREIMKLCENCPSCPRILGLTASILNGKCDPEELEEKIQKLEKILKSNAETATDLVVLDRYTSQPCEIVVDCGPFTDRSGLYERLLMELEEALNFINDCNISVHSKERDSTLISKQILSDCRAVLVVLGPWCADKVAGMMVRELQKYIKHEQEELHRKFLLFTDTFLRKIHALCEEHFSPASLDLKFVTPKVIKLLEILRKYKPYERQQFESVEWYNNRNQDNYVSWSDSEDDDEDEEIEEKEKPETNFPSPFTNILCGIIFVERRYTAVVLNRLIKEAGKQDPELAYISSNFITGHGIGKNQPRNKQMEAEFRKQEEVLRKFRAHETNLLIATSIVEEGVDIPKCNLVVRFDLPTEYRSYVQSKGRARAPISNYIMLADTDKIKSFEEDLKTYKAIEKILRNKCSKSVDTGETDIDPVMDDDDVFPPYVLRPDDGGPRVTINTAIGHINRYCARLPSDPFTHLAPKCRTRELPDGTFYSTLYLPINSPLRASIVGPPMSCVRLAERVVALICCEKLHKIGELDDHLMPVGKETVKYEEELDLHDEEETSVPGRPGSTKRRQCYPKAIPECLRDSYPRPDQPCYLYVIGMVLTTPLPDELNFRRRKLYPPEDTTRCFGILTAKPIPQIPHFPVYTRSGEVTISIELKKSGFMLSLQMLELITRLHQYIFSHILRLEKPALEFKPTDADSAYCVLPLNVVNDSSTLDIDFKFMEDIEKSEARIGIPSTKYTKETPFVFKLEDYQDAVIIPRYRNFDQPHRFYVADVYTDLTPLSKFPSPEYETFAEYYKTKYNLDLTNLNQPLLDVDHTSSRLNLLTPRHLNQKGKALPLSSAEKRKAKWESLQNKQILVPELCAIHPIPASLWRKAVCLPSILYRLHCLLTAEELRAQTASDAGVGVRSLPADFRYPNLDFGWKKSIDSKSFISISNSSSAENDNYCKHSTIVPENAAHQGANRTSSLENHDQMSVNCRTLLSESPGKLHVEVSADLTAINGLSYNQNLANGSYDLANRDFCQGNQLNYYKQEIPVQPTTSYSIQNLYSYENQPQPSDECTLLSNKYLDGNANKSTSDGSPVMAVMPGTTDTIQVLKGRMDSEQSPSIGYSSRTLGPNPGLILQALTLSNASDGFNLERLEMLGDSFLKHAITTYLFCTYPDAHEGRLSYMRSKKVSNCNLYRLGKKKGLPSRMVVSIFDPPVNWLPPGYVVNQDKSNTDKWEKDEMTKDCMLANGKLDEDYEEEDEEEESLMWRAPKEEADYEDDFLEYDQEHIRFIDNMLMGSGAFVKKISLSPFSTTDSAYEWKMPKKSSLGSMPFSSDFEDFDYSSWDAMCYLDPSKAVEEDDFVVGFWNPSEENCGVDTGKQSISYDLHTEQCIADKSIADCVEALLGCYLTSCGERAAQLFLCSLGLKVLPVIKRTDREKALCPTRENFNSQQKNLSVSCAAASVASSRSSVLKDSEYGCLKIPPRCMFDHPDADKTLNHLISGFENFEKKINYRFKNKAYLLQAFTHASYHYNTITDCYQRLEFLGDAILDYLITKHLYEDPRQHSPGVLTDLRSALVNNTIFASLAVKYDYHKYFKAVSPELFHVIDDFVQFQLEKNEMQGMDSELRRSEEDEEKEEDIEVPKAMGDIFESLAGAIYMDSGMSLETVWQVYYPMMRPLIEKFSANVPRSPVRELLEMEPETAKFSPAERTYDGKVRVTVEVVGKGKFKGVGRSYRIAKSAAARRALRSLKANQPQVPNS
UniProt O14907, sequence (whole entry, looked up): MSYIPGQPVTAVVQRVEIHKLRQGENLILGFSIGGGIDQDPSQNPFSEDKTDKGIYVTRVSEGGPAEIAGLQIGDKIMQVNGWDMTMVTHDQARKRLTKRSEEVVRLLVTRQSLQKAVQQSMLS
UniProt P38132, sequence (whole entry, looked up): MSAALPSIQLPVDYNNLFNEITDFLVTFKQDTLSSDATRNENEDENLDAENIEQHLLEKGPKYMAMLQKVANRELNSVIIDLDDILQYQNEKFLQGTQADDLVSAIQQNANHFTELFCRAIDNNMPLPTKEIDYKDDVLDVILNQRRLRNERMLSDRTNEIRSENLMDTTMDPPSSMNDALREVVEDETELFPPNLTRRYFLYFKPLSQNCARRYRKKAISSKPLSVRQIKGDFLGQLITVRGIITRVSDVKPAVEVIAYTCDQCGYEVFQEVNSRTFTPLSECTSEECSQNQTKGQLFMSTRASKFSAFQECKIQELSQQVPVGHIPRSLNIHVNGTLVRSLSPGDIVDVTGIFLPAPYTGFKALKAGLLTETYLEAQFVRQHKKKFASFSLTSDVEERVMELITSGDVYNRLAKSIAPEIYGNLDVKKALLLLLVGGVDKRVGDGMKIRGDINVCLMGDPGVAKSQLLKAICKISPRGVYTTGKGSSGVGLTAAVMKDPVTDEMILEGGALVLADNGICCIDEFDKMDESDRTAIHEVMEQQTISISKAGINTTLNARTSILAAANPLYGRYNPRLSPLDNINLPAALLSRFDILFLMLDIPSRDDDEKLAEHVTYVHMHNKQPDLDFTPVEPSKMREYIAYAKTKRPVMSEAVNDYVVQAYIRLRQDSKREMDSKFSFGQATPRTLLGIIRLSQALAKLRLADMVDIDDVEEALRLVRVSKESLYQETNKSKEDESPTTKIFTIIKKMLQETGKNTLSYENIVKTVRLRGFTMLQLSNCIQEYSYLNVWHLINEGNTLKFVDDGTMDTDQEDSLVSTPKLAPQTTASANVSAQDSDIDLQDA
UniProt P09119, sequence (whole entry, looked up): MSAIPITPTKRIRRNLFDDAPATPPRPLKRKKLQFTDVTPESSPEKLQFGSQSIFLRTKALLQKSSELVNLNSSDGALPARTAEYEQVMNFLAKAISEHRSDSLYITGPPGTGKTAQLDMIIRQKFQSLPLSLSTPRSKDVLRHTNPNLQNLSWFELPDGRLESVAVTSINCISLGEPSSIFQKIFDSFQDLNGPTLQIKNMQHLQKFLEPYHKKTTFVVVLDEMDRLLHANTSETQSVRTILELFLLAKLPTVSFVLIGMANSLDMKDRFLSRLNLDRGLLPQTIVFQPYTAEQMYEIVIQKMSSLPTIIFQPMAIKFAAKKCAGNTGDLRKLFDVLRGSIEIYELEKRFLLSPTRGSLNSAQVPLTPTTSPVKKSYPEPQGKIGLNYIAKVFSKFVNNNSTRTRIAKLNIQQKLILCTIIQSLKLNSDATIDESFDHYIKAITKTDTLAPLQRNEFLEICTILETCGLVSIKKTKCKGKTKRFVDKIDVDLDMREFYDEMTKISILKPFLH
UniProt P62491, sequence (whole entry, looked up): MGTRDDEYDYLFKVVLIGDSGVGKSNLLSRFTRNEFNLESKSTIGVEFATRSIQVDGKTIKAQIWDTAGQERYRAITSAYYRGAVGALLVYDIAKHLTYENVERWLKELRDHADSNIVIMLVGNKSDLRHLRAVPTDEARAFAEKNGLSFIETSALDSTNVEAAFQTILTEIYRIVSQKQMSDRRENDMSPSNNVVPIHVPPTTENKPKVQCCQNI

DYNLRB1/DYNLL1/DYNLT1/DYNC1LI2/DYNC1I2/DYNC1H1 dynein-1 complex (Homo sapiens)
Ka (KASH5/HOOK3 chimera KASH5 CC, Hook3 LIC-BD, HaloTag; pull-down): < 1.6e+06 M⁻¹

FGA (Homo sapiens, UniProt P02671)
cross-linked residues (ERBB3 (Homo sapiens, UniProt P21860); cross-linking MS; with: DSSO): K440 to K705

GSGAGIESNV
binding intensity (human SCRIB PDZ3-4 tandem (MBP fusion); automated holdup; peptide, crude extract; concentration not given, corrected by standard peak, unit not given; relative to: biotin control resin, higher = stronger binding): 0.698

ALB (Homo sapiens, UniProt P02768)
cross-linked residues (SPINK5 (Homo sapiens, UniProt Q9NQ38); cross-linking MS; with: DSSO): K223 to K266

PALLD Ig3-Ig4 tandem x, scrambled linker
bundled F-actin fraction (ACTA1 F-actin (Oryctolagus cuniculus, UniProt P68135); low-speed co-sedimentation; 5 µM): 15.5%

Putative uncharacterized protein ENSP00000382790 (Homo sapiens, UniProt A8MVM7)
cross-linked residues (TF (Homo sapiens, UniProt P02787); cross-linking MS; with: DSSO): K13 to K310

B1 (TARBP2)
binding (DICER1 (Homo sapiens, UniProt Q9UPY3); SEC): binds

B2 (dnaG P16 domain 453-597)
binding (dnaB I125A (Geobacillus stearothermophilus, UniProt Q9X4C9); NMR titration): binds

CDC6 (Saccharomyces cerevisiae, UniProt P09119)
interaction screen (MCM7 (Saccharomyces cerevisiae, UniProt P38132); cross-linking MS; hits only): cross-linked

B3 (PI4KB V434G)
relative binding (RAB11A (Homo sapiens, UniProt P62491); co-IP; HEK-293T; relative to: wild type, higher = more binding): 3.6 fold

QGRWDHETIV
binding intensity (human MAGI1-3/6 PDZ construct (MBP fusion); automated holdup; peptide, crude extract; concentration not given, uncorrected, unit not given; relative to: biotin control resin, higher = stronger binding): 0.235

B4 (CTNNB1)
FRET fold increase (TAX1BP3 (Homo sapiens, UniProt O14907); FRET; H460; in cells; relative to: donor-only bleed-through ratio, higher = more interaction): 1.7 fold

Excerpt of the above:
QGRWDHETIV
binding intensity (human MAGI1-3/6 PDZ construct (MBP fusion); automated holdup; peptide, crude extract; concentration not given, uncorrected, unit not given; relative to: biotin control resin, higher = stronger binding): 0.235

PALLD Ig3-Ig4 tandem x, scrambled linker
bundled F-actin fraction (ACTA1 F-actin (Oryctolagus cuniculus, UniProt P68135); low-speed co-sedimentation; 5 µM): 15.5%
